# Measurements gathered from unrelated publications.
# Compare with care: the assays were run in different laboratories. Values joined by “and” are separate records of one study, mostly repeats; a detail may differ. ± gives the spread as reported.
SMILES,assay,test system,conditions,remaining compound
Cc1nnc(-c2ccc(CC(=O)NCCCC[C@H](NC(=O)c3ccc(OCc4ccc(B(O)O)cc4)c(-c4nc5ccccc5c(=O)[nH]4)c3)C(=O)NCC(=O)NCC(=O)NCC(=O)N[C@@H](Cc3ccccc3)C(=O)N[C@@H](Cc3ccccc3)C(=O)O)cc2)nn1,UPLC-MS/MS,human serum,"100 µM, 2.5 h, 37 °C",89.3% and 85.5%
C/C(=N\OCCCN1CCCCC1)c1ccc(C(F)(F)F)cc1,,human liver microsomes,30 min,85.2%
C=CCN1CCC23c4c5ccc(OC(=O)c6ccc(N)cc6)c4OC2C(=O)CCC3(O)C1C5 (centres unmarked),,rat plasma,"0.5 h, no inhibitor",6% and 5.6% and 4.7%
C[C@H](NCc1ccc(-c2ccc(C(F)(F)F)cc2)cc1)C(N)=O,,rat plasma,"1 µM, 120 min",95%
NC1CCN(C(=O)Oc2ccc(C3CCCC4(C3)OOC3(O4)C4CC5CC(C4)CC3C5)cc2)CC1 (racemic),,citrate buffer anaerobic,"2 h, together with: ferrous ammonium sulfate 50 mM",83%
O=C(O)c1ccc(-c2nc(-c3ccccc3Cl)c3sccn23)cc1,,human liver microsomes,"1 µM, 30 min",69.6%
C[C@@H](Oc1ccc2c(c1)[C@H]1CCN[C@@]1(C)CO2)c1ccccc1,HPLC,DPBS,"10 µM, 4 h, 37 °C, together with: CellROX Green 5 µM and tBHP 55 µM",97%
Cc1cc(-c2ccc3ccccc3c2)nnc1NCCN1CCN(C)CC1,,human liver microsomes,60 min,93.8%
C=CCN1CCC23c4c5ccc(OC(=O)c6ccccc6)c4OC2C(=O)CCC3(O)C1C5 (centres unmarked),,rat plasma,"0.5 h, together with: digitonin 100 µM",0%
O=c1[nH]c2ccccc2c(=O)o1,,HEPES buffer,"20 h, pH 7.4",0%
CC(C)=CCC/C(C)=C\CCn1cc(CC(P(=O)(O)O)P(=O)(O)O)nn1,,mouse plasma,"4 h, 37 °C, equilibrium dialysis stability",110 ± 6.3%
C=CCN1CCC23c4c5ccc(OC(=O)c6ccc(NC(=O)OC(C)(C)C)cc6)c4OC2C(=O)CCC3(O)C1C5 (centres unmarked),,rat plasma,"0 h, together with: digitonin 100 µM",95.5% and 100% and 104%
CCN(CC)CCOc1ccc(-c2nnn(Cc3ccc(OC)cc3)c2N)cc1,,monkey plasma,120 min,125%
COc1cc2c(cc1NC(=O)c1cncn1C)C[C@H]1[C@H]3CCCC[C@@]23CCN1C,,"mouse plasma, 50% in PBS","5 µM, 1 h, 37 °C",97.8%

# For quick reference, copied from above:
SMILES,assay,test system,conditions,remaining compound
C=CCN1CCC23c4c5ccc(OC(=O)c6ccc(NC(=O)OC(C)(C)C)cc6)c4OC2C(=O)CCC3(O)C1C5 (centres unmarked),,rat plasma,"0 h, together with: digitonin 100 µM",95.5% and 100% and 104%
CCN(CC)CCOc1ccc(-c2nnn(Cc3ccc(OC)cc3)c2N)cc1,,monkey plasma,120 min,125%
